Published values collected from several papers.
Numbered parts are unrelated; each lists some results of a single study.

Study 1
Target: Histone acetyltransferase KAT6A, both winged helices, GST fusion (KAT6A, Homo sapiens, UniProt Q92794, residues 1-181)
Method: protein binding microarray
Molecule type: double-stranded DNA, one strand shown
Matrix: in vitro
Tested at: not given
Notes: 8-mer, flanks averaged, mean of 2 arrays, mostly near background
Reference: not given
Direction: higher = stronger binding
Construct (chain): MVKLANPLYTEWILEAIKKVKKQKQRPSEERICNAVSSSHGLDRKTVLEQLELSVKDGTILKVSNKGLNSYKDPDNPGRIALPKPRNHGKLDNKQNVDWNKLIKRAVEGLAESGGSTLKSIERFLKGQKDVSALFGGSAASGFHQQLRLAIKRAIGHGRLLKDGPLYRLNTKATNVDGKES
Sequence	E-score
AGTAGATC	-0.162
GTACTCGA	-0.0563
AAAGAGCG	0.188
CCAAATGC	-0.187
GGAGGTTA	-0.0801
CGAAAGGA	0.087
GCAACATA	-0.0482
AAAAGAGG	-0.203
CCCCTTGA	-0.111
AGCAGCAA	-0.0624
ATATCAGC	-0.0789
CTAAAACA	-0.0687
AACAAGCC	-0.00152
CTGCCAAC	-0.152
CTCGTAAA	0.0412
GGTCAAAC	0.0846
AAACCTTC	-0.23
AGATACAC	0.119
GAGAACCC	-0.196
CCCATTTA	-0.131
ACGTAAAA	-0.0519
CTGGGCTA	-0.167
CGGAGAAG	-0.00893
ACAATAGA	-0.0981

Study 2
Target: Interferon regulatory factor 5, full length, phosphomimetic (IRF5, Homo sapiens, UniProt Q13568-2, residues 1-514, K96S/S451D/S453D/S456D/S462D)
Method: protein-binding microarray
Molecule type: double-stranded DNA, one strand shown
Matrix: in vitro
Tested at: 250 nM
Notes: 60-bp whole probe
Added: salmon DNA 0.4 mg/ml
Reference: random background probes
Direction: higher = stronger binding
Constant ends, left off below: GCCTAGCAC … GTCTTGATTCGCTTGACGCTGCTG
Sequence	log fluorescence
GACTGTATCCTTCTCCTGACGTGCTAG	0.274 z-score
GACGGCATCCTTCTCCTGACGTGCTAG	-0.399 z-score
GACGGTATCGGGTCTGGGGACGTGCTA	1.89 z-score
TTAGGTTTCCTTAACCTTTAGTGCTAG	0.505 z-score
GACGGTATCGGTATCGCGACGTGCTAG	5.43 z-score
GACGTTCTCGGACTGGGGACGTGCTAG	-0.499 z-score
TCATTTCTAATATTCTGACTGTGCTAG	1.04 z-score
GACGGTCTCCCTATCCTGACGTGCTAG	-0.187 z-score
TTAGGGCTGGGTCTCGGTTAGTGCTAG	-0.022 z-score
TTTGGTATCGGGTTTCGGTTAGTGCTA	9.21 z-score
GACGGATTGGGACTGGGGACGTGCTAG	-0.427 z-score
GATGATTTCGGGTTTCGAGACGTGCTA	5.94 z-score
GACGGTCTCGGACTGGGGTCGTGCTAG	-0.429 z-score
GACGGACTGGACTATCGGGGCGTGCTA	0.265 z-score
TTAGGACTGGACACTGGGTGAGTGCTA	-0.444 z-score
GACGGTTTCCTTTCTCTGACGTGCTAG	1.79 z-score
TCAAATTTCCATTTTCTACTGTGCTAG	1.87 z-score
TTAAGTTTCGGACTGGGTTAGTGCTAG	7.57 z-score
TTAGGACTGGACTATCGGTTTGTGCTA	5.07 z-score
GACGATTTCGGGTTTCGAGACGTGCTA	5.24 z-score
TTAGGTTTCGGACTGAGTTAGTGCTAG	5.36 z-score
CCAGTTTTGTGTGTGTGTTTGTGCTAG	0.707 z-score
TTAGATTTCAGTTCCGAATAGTGCTAG	2.15 z-score
TCAAGTTTGTAAATCTTACTGTGCTAG	0.186 z-score

Study 3
Target: RING finger protein unkempt homolog, zinc fingers 1-6, GST-SBP tag (UNK, Homo sapiens, UniProt Q9C0B0, residues 30-357)
Method: RNA Bind-n-Seq
Molecule type: RNA
Matrix: in vitro
Tested at: not given
Notes: RNA with constant flanks, human and mouse sites, ends assumed
Reference: input RNA pool
Direction: higher = stronger binding
Constant ends, left off below: GGGAGUUCUACAGUCCGACGAUC … CAACAGAGGAUUGAGCAUCA
Construct (chain): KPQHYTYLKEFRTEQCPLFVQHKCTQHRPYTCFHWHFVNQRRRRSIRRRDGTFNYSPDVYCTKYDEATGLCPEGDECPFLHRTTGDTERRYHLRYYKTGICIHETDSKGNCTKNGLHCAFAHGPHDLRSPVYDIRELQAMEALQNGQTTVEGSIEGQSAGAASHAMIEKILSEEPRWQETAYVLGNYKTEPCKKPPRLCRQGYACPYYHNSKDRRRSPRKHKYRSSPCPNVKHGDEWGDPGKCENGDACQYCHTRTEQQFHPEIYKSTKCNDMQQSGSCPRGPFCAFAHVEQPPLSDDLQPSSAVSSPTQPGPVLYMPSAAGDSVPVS
Sequence	bound/input enrichment [ratio]
CUUCAGUUACAUCCCAGGGAAGAUGCUUGCAUCCCCAAUACAAACUAUGGUGUUCUCUUAAUAGAGUUUUUUGAAUUAUAUGGACGGCACUUCAAUUACUUAAAGACUGGCAUCCGGAUA	1.46
CACUUCUUAAGAGAGAAGAGAGAGGAAGUCAGGGGACACACAGGCUGAGUGGCCGUGUGGUAGUUCUCCUGUCUGUGUAUAAAUAUUUACAUGUUCUGUGUGGUCUGAAUGCAGAAGCUC	0.215
UCCUUACAACAUGGUGACCUUGAGUACAGGCAAUGCUACCAAUUCCUCCACAAGCCCACCAUUGAAAACAUGCACCGCUUUAAUGCUGUGCAUAGACAACGAAGCUUUGGUCAACAGAAC	0.0891
AAUUCACAGAAGCACAAUUUUGCCCUUUGCGAGACAUUGUUGCCUCUAUCUAGUCCUACAAGUAGGGUUUUGCAUACUGUGUUUGCCCCUAGGGUUGUCAGUGCAUCAGAAAUACUUCUA	0.181
AGUCUUGCCGCAUCUUGGCAAGUUGCAGAGAUGGUGGAGCUAGAAAAAAAAAAAAAAAAGCCCUUUUCAGUUUGUGCACUGUGUAUGGUCCGUGUAGAUUGAUGCAGAUUUUCUGAAAUG	0.573
AAAGCCCUUAAAGCCAAGAAGGAAGAUGGGAAUAAAGCCUUUAAGGAAGGAAAUUACAAGCUAGCAUAUGAACUGUACACAGAAGCCUUGGGGAUAGAUCCCAACAACAUAAAAACAAAU	0.301
CAUGUAACUGUGAAGAAGCUGUUUGUUGGCGGAAUUAAAGAAGAUACUGAGGAACAUCACCUUAGAGAUUACUUUGAGGAAUAUGGAAAAAUUGAUACCAUUGAGAUAAUUACUGAUAGG	0.976
UGACAAAAUGUGAUGAGAGCUUCUUGAACCGGUAAACUAGUACAGGUCUGAGAAAGACAUAUUAGAAGAAUCAUUAUACUUCCUUGAAUUAUAUUUAUUUUCAUGUUUCUCUAAUGCAAA	0.863
UGUGGCUGCUUUCUUUGGUGCCCUCCCCUCACCCCACUGUAGCUGUGACGUGUUGUAGUUUUUAGAUGUUUGUAAAAUGUUUAAAAAAAUGUUAAAAGGAAAAAAGUGAAAAUAACAAAA	0.944
GAAGUAAAAAGUGUAGAACAGCAAGUUAUCGGCUUCAGUGGUCUGUCAGAUGACAAGAAUUACAAGAAACUGGAGAGGAUUCUAACAAAACAGCUUUUUGAAAUAGACUCUGUAGAUACU	0.321
UCAAUAGAAGAGGAAAGGAAUGUCCCAUUGGCAACUGACUUGAUCCGAAUAAGUCAAUAUAGGUUUACGGUUUCAGACUUGAUGAGAAUGGAAAAGAUUGUAUUGGAGAAGGUGUGUUGG	0.4

Study 4
Target: RNA binding protein fox-1 homolog 2, RRM domain, GST-SBP tag (RBFOX2, Homo sapiens, UniProt O43251-10, residues 100-194)
Method: RNA Bind-n-Seq
Molecule type: RNA
Matrix: in vitro
Tested at: 365 nM
Notes: natural RNA segment, single round, ends assumed
Reference: no-protein control
Direction: higher = stronger binding
Constant ends, left off below: GGGAGUUCUACAGUCCGACGAUC … UGGAAUUCUCGGGUGCCAA
Target sequence (chain): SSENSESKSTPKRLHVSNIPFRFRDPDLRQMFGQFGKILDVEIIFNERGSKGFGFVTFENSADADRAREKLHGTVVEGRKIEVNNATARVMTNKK
Sequence	RBNS enrichment (R)
AAUUUAUAGCUGUCCUUGACCUCGGGUUGGACACACCUGCAACAUGAAUAGUAAGACCUAAUAAUUCCUGGCUUAAAGAAACUGAAGGAAUUACUCUUUUAGAGAAAAAC	0.358
CAUUUUUGAAUAGAAAACAGUUGCGUGCUUUUAUUGAAGAUUGUUAAAAUAAUCACCAUAGUAACUUGAUAUGUUAGUAUUUUUCUUUUUCCUUUUAGUAUGUUUCAAGU	0.819
UGGCUGAAACUGCCACCAACUGCCACGAUGAACCCAACUGCUGUUUAUGCCCCCAUUUUCCUUUUUUUGUAUCUACACCCACACGAUUCCCAAUGUUGGAUAUUUCUACA	1.28
GAGGGAAAUCUUUAUAUUCUGUAUAAAAACAAAAUCAAAUUUAUAUACUAAAAUCAUUUGUCUAAAAUUUAAGUUGUUUUCAAAUAAAAGUUGAAAUGCAUUCCUGUGUG	1.33
UAUGUGUUUAUCAAAUUUUGACAGGUUUUGAAUGUUCUGUCUAUACCCUAUUUUUAAGAAGUAGGUAUCAGGUACAGCCAGUGUUUUCAUUGUCUGAUUAAAACAGUUUA	0.789
ACAAUGGUAAUUUGAUAUAUGGUAUUUAUAUUGGCAUUUUUCAACCCAGUGUCACUAGAUGUCACACACAUUUGUGGUGCUUUGAUGUUUGCAAGUCUAACCUCUGAACA	0.346
GGCAAGCCAGAACUCCAGAGCUGAGCUGGUCACAGUCACUCCUCCCCCACCACCCCUGCCCCUCCAGAGGCUGCAGUUUUCUCGCCUGUCACUUGGAACAUUAGAGCUCC	0.533
UUGUUGAUGGAAUACUGUAUCAUAUGCUCAACUCUGAAAACCUUGAACACGGCCAAAAUCCAUAAAGAUUAUAAAAGCAAACUAAGUUGUGAAGCUAUAGUACAUGUAGG	0.391
UAUAGCUGUGGCUCAUGCUACCCAAUUCCAGAUUUCUUUGUCCUCUAAGAGUUGAUUGCUGUAUAUUAAAAUUGAACAUCAGAGGAUGGGAAGAGGGCUCUGUAAGCCAG	0.751
AAUUCCUGCACCUGGAGGAGUUCCCCAACCCCCGUGUUUGCGGGAGGAAGCAUUUGUACAGUGGCUAAUUUAAGGGGAGUGGGAGACCCUGUCACCCUGAGCACUCUGCG	0.763
CACUAUUCCCCAGUCUCCCGCUGUGGGGCAGGAACAGGAAGUGACGGGAACCUUGAGGAGGAAACGCCUGUGUUAGGGAGAGAGUGGGUGCGGUGUAGAGGAUGCUCUUG	0.857
UGACAAGGAUUUGAAAAAGACUGGCGAGGGAACGUGUCUGCUUAGCCGAGACUCCCAUACCUACUAUGCACGCACUGGCCCCCAACGACCAGCCCCCUAGGAACGUGUUA	2.18

Repeated from above (study 2):
Sequence	log fluorescence
GACTGTATCCTTCTCCTGACGTGCTAG	0.274 z-score
GACGGCATCCTTCTCCTGACGTGCTAG	-0.399 z-score
GACGGTATCGGGTCTGGGGACGTGCTA	1.89 z-score
TTAGGTTTCCTTAACCTTTAGTGCTAG	0.505 z-score
GACGGTATCGGTATCGCGACGTGCTAG	5.43 z-score
GACGTTCTCGGACTGGGGACGTGCTAG	-0.499 z-score
TCATTTCTAATATTCTGACTGTGCTAG	1.04 z-score
GACGGTCTCCCTATCCTGACGTGCTAG	-0.187 z-score
TTAGGGCTGGGTCTCGGTTAGTGCTAG	-0.022 z-score
TTTGGTATCGGGTTTCGGTTAGTGCTA	9.21 z-score
